Measured values collected from several papers.
Each numbered part is a random draw from the data of one study; scales do not carry over between parts.
Sequence of UniProt Q9H4B4 (whole entry, looked up): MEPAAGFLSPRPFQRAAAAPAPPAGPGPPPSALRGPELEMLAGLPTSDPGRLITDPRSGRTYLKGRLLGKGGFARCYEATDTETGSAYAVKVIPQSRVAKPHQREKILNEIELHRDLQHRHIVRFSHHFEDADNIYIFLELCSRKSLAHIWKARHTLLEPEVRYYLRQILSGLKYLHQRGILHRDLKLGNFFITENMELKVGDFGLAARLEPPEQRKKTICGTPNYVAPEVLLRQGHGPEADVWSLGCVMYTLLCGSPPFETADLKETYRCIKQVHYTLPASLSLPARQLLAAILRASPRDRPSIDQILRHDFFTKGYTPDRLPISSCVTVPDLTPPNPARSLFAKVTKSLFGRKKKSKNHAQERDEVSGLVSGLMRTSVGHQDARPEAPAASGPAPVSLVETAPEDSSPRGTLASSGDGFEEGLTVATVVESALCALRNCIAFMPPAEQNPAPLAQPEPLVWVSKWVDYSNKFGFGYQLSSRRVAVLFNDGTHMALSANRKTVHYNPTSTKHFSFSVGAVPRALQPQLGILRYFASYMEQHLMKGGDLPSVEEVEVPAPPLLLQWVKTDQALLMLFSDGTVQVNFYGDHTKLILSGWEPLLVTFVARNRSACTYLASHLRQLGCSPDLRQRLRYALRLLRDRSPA
Sequence of UniProt P78368 (whole entry, looked up): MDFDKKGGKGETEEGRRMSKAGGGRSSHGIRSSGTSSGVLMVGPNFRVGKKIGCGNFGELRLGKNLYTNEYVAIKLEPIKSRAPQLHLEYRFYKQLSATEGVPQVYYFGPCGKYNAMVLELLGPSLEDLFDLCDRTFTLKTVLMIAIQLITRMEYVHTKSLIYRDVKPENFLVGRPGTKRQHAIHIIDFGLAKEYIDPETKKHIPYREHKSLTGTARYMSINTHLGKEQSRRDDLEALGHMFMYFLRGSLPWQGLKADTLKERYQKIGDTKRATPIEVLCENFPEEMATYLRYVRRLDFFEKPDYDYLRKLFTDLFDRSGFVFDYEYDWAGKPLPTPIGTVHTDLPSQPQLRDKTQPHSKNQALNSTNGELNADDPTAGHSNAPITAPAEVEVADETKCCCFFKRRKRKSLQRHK
Sequence of UniProt Q99755 (whole entry, looked up): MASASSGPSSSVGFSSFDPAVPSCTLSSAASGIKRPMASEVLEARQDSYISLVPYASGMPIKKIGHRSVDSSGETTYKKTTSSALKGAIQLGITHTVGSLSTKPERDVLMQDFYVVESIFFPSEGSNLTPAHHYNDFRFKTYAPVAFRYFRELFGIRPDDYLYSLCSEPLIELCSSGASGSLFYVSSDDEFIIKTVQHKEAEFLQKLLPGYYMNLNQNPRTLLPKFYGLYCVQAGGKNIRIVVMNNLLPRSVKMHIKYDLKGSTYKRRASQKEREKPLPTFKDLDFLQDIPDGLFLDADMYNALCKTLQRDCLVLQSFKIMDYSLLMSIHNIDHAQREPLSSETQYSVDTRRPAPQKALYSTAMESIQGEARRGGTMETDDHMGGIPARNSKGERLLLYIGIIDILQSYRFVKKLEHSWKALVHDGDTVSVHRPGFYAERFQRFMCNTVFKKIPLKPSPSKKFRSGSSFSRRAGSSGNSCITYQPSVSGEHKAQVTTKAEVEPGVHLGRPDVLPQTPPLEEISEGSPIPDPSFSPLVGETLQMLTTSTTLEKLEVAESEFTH
Sequence of UniProt Q9Y2H1 (whole entry, looked up): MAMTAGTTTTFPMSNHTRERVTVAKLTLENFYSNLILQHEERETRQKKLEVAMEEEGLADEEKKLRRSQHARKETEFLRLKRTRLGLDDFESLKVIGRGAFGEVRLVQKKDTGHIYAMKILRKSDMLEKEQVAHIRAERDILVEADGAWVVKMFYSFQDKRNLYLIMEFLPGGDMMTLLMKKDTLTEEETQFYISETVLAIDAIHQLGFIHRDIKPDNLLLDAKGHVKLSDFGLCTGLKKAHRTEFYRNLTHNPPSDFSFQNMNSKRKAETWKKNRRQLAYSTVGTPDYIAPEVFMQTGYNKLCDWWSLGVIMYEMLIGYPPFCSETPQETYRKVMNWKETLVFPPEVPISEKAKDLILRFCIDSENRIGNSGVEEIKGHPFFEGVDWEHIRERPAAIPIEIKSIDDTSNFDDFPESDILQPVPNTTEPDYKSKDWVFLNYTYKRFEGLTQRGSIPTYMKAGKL
Sequence of UniProt P50750 (whole entry, looked up): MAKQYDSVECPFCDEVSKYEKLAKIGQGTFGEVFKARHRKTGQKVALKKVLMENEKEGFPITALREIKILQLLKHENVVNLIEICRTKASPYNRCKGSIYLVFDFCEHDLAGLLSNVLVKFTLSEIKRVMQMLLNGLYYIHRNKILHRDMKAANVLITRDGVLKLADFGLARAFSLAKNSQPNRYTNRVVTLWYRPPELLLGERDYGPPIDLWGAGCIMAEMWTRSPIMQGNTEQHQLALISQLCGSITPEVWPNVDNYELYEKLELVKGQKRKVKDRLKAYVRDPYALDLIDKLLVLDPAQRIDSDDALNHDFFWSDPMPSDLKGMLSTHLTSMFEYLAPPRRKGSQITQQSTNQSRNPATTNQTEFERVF
Sequence of UniProt Q8IVW4 (whole entry, looked up): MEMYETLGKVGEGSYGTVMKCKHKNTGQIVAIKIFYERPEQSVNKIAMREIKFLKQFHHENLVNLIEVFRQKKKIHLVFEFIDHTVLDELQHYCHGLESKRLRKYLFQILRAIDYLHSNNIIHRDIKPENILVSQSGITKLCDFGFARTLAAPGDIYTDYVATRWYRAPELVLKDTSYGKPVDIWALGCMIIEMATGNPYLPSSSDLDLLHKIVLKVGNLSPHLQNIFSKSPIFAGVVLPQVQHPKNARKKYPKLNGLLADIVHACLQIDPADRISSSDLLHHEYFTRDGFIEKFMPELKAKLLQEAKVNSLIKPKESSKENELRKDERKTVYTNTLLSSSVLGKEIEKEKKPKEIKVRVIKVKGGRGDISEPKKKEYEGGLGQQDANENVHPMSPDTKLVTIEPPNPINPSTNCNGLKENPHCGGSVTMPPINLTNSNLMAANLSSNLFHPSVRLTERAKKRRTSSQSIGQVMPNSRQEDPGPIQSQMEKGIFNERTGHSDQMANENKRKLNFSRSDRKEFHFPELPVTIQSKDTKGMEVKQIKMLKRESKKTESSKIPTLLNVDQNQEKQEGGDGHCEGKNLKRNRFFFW
Sequence of UniProt P25098 (whole entry, looked up): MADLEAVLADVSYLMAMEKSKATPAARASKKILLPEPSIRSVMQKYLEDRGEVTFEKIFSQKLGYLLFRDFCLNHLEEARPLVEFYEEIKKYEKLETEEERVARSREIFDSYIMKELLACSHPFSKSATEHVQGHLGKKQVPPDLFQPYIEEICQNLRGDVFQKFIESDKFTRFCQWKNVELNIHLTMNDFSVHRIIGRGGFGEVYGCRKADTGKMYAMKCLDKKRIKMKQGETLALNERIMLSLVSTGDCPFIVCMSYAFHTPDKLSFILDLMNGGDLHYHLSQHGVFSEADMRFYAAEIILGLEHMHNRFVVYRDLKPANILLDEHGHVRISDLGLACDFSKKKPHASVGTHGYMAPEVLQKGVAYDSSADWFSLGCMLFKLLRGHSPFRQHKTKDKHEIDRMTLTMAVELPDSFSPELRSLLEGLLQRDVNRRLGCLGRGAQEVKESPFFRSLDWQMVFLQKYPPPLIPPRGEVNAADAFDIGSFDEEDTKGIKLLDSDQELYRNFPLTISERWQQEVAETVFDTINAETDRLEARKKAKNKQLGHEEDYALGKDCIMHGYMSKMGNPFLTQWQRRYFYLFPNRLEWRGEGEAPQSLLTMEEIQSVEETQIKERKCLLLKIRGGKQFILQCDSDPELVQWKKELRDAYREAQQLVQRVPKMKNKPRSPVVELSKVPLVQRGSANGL
Sequence of UniProt Q16659 (whole entry, looked up): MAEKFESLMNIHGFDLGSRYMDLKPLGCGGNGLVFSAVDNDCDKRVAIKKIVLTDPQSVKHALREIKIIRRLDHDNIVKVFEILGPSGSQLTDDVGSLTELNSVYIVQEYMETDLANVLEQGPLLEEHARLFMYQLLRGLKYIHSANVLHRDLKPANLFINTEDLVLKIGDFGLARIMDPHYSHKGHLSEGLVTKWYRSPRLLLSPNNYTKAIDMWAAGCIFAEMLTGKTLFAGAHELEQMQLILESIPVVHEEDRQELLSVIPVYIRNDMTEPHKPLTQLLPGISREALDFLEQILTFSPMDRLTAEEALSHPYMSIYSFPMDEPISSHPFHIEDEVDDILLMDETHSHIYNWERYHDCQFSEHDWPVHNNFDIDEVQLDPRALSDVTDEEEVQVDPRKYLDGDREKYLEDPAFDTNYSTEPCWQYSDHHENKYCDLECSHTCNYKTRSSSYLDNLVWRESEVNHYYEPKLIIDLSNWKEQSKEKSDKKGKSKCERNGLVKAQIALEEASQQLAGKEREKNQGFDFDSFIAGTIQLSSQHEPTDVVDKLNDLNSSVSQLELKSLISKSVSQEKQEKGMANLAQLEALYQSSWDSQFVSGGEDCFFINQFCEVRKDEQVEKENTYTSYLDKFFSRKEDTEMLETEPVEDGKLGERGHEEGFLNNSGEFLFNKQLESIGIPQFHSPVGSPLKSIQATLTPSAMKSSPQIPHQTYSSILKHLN

Set 1 — host: human; matrix: microsomes or S9; tested at: 2 µM; time: 0.5 h
SMILES | remaining compound [%]
Cc1ccccc1S(=O)(=O)Nc1nc2ccccc2nc1NC(c1ccccc1)c1nccn1C (centres unmarked) | > 100
CN(C)C[C@H]1CC[C@H](Nc2ncc3ccc(=O)n(C4CCCCCC4)c3n2)CC1 | 18.7
CN(C(=O)CN1CCc2nc(N3CCCC3)[nH]c(=O)c2C1)C1CCCCC1 | 85.4
O=C(CN(CCc1ccccc1)C(=O)CNS(=O)(=O)c1ccccc1)NCC1CCCO1 (centres unmarked) | 7.69
Cc1cc(=O)n(C2CCNCC2)nc1-c1ccccc1 | 70.8
Cc1cc(C)nc(N2CCn3c(nnc3C3CCCN3C)C2)n1 (centres unmarked) | 92
CN(n1cnc2ccsc2c1=O)S(C)(=O)=O | > 99.9
CC(C)c1nc(C#N)c(NNC(=O)CC2CCCCC2)o1 | 0
COC(=O)C(O)c1cnc2c(c1-c1ccc(Cl)cc1)C(C)(C)CN(Cc1ccc(OC)cc1)C2=O (centres unmarked) | 80.3
Cc1cnn(CCNC(C)C(=O)Nc2sccc2C(N)=O)c1 (centres unmarked) | 99.2
CCCS(=O)(=O)N1CC(=O)Nc2ccc(Br)cc21 | 65.9
c1ccc(-c2cc3cc(-c4ccccc4)[nH]c3cn2)cc1 | 49
COCCCNC(=O)C1CCC(CN(Cc2c(Cl)cccc2Cl)S(=O)(=O)c2ccc(Br)cc2)CC1 (centres unmarked) | 0
CC(/C=C1\S/C(=N/c2ccc(O)cc2)N=C1O)=C\c1ccccc1 | 80.8
O=C1Nc2cc3ccc(OCc4ccccc4)cc3c3cccc1c23 | 50.6
CC(Oc1ccc(Cl)cc1Cl)C(=O)NCCc1ccccc1 (centres unmarked) | 46.4

Set 2 — effect on: enzyme activity; mode: inhibitor; tested at: 0.5 µM; reference: control
Target: Tyrosine-protein kinase HCK (HCK, Homo sapiens, UniProt P08631)
Sequence of UniProt P08631 (whole entry, looked up): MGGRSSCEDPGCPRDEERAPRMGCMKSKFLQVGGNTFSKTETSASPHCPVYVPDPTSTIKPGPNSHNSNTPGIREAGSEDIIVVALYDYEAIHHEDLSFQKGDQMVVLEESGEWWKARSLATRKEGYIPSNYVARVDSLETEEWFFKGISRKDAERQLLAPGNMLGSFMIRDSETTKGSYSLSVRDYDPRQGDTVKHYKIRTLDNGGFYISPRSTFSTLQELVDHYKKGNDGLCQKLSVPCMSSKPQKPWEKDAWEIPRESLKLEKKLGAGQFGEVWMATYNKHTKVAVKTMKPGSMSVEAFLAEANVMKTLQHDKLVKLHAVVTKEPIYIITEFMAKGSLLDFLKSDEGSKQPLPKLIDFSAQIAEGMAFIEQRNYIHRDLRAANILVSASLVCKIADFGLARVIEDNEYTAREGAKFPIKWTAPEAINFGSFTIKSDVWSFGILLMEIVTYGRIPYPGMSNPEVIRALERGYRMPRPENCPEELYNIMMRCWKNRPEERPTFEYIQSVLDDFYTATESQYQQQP
SMILES | remaining activity [%]
N#CC(=C(N)Sc1ccc(N)cc1)c1ccccc1C(F)(F)F | 93.9
Oc1ccc(Nc2nc(-c3ccc(Cl)cc3)cs2)cc1 | 96.1
Cc1ccc(NC2=CC(=O)c3sc(C)nc3C2=O)cc1 | 94.4
CCCC(=O)Oc1ccc2[nH]c(C(=O)c3cc4ccccc4[nH]3)cc2c1 | 95.1
CC(C)(C)n1nc(Cc2cccc3ccccc23)c2c(N)ncnc21 | 68.4
CC#CC(=O)Nc1cc2c(Nc3ccc(F)c(Cl)c3)ncnc2cn1 | 92.2
Cc1cc(Nc2nc(-c3ccccc3)nc3ccccc23)n[nH]1 | 77.3
Fc1ccc(-c2nc3n(c2-c2ccncc2)CCS3)cc1 | 101
Nc1nccc(-c2c(-c3ccc(F)cc3)ncn2C2CCNCC2)n1 | 95.5
NC(=O)c1ccc(N(C(N)=O)c2c(F)cccc2F)nc1-c1ccc(F)cc1F | 89.5
Cc1cncc2cccc(S(=O)(=O)N3CCCN(C(=O)CN)C[C@@H]3C)c12 | 96.4
O=S(=O)(NCCNC/C=C/c1ccc(Br)cc1)c1cccc2cnccc12 | 99.4
CCc1[nH]c(-c2ccc(OC)cc2)nc1-c1ccncc1 | 95.1
CC[n+]1c(/C=C/N(C)c2ccccc2)n(-c2ccccc2)c2ccc(-c3nc4ccccc4s3)cc21 | 104

Set 3 — tested at: 1 µM
SMILES: N#Cc1ccc(Nc2ccc3[nH]c(=O)[nH]c3c2)c(Cl)c1
target | effect on | method | remaining binding
Serine/threonine-protein kinase 38-like (STK38L, Homo sapiens, UniProt Q9Y2H1) | binding | competition with immobilised ligand | 53%
Cyclin-dependent kinase 9 (CDK9, Homo sapiens, UniProt P50750) | cell-free assay | competition with immobilised ligand | 100%
cAMP-dependent protein kinase catalytic subunit beta (PRKACB, Homo sapiens, UniProt P22694) | cell-free assay | competition with immobilised ligand | 96%
Phosphatidylinositol 4-phosphate 5-kinase type-1 alpha (PIP5K1A, Homo sapiens, UniProt Q99755) | cell-free assay | competition with immobilised ligand | 100%
Tyrosine-protein kinase receptor TYRO3 (TYRO3, Homo sapiens, UniProt Q06418) | cell-free assay | competition with immobilised ligand | 62%
Cyclin-dependent kinase-like 3 (CDKL3, Homo sapiens, UniProt Q8IVW4) | binding | competition with immobilised ligand | 80%
Beta-adrenergic receptor kinase 1 (GRK2, Homo sapiens, UniProt P25098) | cell-free assay | competition with immobilised ligand | 100%
Tyrosine-protein kinase ABL1, phosphorylated (ABL1, Homo sapiens, UniProt P00519, F317I) | binding | – | 81%
Serine/threonine-protein kinase PRP4 homolog (PRPF4B, Homo sapiens, UniProt Q13523) | cell-free assay | competition with immobilised ligand | 99%
Receptor-interacting serine/threonine-protein kinase 2 (RIPK2, Homo sapiens, UniProt O43353) | cell-free assay | competition with immobilised ligand | 70%
Epidermal growth factor receptor (EGFR, Homo sapiens, UniProt P00533, G719C) | cell-free assay | competition with immobilised ligand | 100%
Serine/threonine-protein kinase PLK3 (PLK3, Homo sapiens, UniProt Q9H4B4) | cell-free assay | competition with immobilised ligand | 84%
Casein kinase I isoform gamma-1 (CSNK1G1, Homo sapiens, UniProt Q9HCP0) | cell-free assay | competition with immobilised ligand | 100%
Casein kinase I isoform gamma-2 (CSNK1G2, Homo sapiens, UniProt P78368) | cell-free assay | competition with immobilised ligand | 100%
Receptor-type tyrosine-protein kinase FLT3 (FLT3, Homo sapiens, UniProt P36888, N841I) | cell-free assay | competition with immobilised ligand | 77%
Tyrosine-protein kinase Mer (MERTK, Homo sapiens, UniProt Q12866) | cell-free assay | competition with immobilised ligand | 100%
Mitogen-activated protein kinase 6 (MAPK6, Homo sapiens, UniProt Q16659) | cell-free assay | competition with immobilised ligand | 100%

Set 4 — organism: Sarcocystis neurona; effect on: parasite activity; tested at: 10 µM; time: 96 h
SMILES | activity class
NS(=O)(=O)c1cc2c(cc1Cl)NCNS2(=O)=O | inactive
Clc1ccc2c(c1)C(N1CCNCC1)=Nc1ccccc1O2 | inactive
CCn1cc(C(=O)O)c(=O)c2ccc(C)nc21 | inactive
CC(C)NCC(O)COc1ccc(CC(N)=O)cc1 (centres unmarked) | inactive
CCCCNC(=O)NS(=O)(=O)c1ccc(C)cc1 | inactive
COCCOC(=O)C1=C(C)NC(C)=C(C(=O)OC(C)C)C1c1cccc([N+](=O)[O-])c1 (centres unmarked) | inactive
CCC(=O)O[C@]1(C(=O)CCl)[C@@H](C)C[C@H]2[C@@H]3CCC4=CC(=O)C=C[C@]4(C)[C@@]3(F)[C@@H](O)C[C@@]21C | inactive
CCC1(c2ccccc2)C(=O)NCNC1=O | inactive
OCCN1CCN(CCCN2c3ccccc3Sc3ccc(C(F)(F)F)cc32)CC1 | inactive
CO[C@H]1/C=C/O[C@@]2(C)Oc3c(C)c(O)c4c(c3C2=O)C2=NC3(CCN(CC(C)C)CC3)NC2=C(NC(=O)/C(C)=C\C=C\[C@H](C)[C@H](O)[C@@H](C)[C@@H](O)[C@@H](C)[C@H](OC(C)=O)[C@@H]1C)C4=O | inactive
CCS(=O)(=O)CCn1c([N+](=O)[O-])cnc1C | inactive
CC(C)(O)c1ccccc1CC[C@@H](SCC1(CC(=O)O)CC1)c1cccc(/C=C/c2ccc3ccc(Cl)cc3n2)c1 | inactive

A few entries again (set 2):
SMILES | remaining activity [%]
CC(C)(C)n1nc(Cc2cccc3ccccc23)c2c(N)ncnc21 | 68.4
CC#CC(=O)Nc1cc2c(Nc3ccc(F)c(Cl)c3)ncnc2cn1 | 92.2
Cc1cc(Nc2nc(-c3ccccc3)nc3ccccc23)n[nH]1 | 77.3
Fc1ccc(-c2nc3n(c2-c2ccncc2)CCS3)cc1 | 101
Nc1nccc(-c2c(-c3ccc(F)cc3)ncn2C2CCNCC2)n1 | 95.5
NC(=O)c1ccc(N(C(N)=O)c2c(F)cccc2F)nc1-c1ccc(F)cc1F | 89.5
Cc1cncc2cccc(S(=O)(=O)N3CCCN(C(=O)CN)C[C@@H]3C)c12 | 96.4
